Experimental data pooled from the literature.
Compare with care: the assays were run in different laboratories. ± marks the error that the study gave.
NOD2 S933A LRR domain: Nucleotide-binding oligomerization domain-containing protein 2, LRR domain (NOD2, Homo sapiens, UniProt Q9HC29, S933A)
Sequence of UniProt Q9HC29 (whole entry, unmodified, looked up): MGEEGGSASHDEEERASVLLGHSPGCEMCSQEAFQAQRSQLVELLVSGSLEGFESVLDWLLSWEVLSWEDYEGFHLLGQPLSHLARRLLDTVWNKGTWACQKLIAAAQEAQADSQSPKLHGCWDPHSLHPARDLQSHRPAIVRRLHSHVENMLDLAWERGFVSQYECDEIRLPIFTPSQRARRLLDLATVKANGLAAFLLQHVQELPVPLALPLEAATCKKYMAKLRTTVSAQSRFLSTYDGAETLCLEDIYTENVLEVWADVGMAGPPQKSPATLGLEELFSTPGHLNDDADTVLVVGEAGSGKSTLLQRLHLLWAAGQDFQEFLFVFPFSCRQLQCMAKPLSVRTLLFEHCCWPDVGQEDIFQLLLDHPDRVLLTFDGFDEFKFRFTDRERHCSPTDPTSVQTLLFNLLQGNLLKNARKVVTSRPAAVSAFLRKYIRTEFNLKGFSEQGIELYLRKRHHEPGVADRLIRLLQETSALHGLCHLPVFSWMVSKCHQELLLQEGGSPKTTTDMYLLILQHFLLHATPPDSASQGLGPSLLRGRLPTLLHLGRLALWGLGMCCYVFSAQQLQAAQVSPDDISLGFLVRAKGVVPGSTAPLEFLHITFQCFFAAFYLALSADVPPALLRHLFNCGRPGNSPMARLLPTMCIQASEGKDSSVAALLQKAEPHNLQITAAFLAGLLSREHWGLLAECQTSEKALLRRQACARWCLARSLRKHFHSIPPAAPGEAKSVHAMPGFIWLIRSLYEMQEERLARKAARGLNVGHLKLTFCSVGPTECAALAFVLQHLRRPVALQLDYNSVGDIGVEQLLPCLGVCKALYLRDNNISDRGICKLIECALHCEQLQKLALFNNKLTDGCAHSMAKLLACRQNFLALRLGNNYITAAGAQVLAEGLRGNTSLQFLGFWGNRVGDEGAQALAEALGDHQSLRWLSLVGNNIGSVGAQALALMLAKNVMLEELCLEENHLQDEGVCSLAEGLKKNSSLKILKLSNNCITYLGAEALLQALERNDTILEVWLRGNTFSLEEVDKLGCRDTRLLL
USP51 ZnF-UBD domain: Ubiquitin carboxyl-terminal hydrolase 51, ZnF-UBD domain (USP51, Homo sapiens, UniProt Q70EK9)
Sequence of UniProt Q70EK9 (whole entry, looked up): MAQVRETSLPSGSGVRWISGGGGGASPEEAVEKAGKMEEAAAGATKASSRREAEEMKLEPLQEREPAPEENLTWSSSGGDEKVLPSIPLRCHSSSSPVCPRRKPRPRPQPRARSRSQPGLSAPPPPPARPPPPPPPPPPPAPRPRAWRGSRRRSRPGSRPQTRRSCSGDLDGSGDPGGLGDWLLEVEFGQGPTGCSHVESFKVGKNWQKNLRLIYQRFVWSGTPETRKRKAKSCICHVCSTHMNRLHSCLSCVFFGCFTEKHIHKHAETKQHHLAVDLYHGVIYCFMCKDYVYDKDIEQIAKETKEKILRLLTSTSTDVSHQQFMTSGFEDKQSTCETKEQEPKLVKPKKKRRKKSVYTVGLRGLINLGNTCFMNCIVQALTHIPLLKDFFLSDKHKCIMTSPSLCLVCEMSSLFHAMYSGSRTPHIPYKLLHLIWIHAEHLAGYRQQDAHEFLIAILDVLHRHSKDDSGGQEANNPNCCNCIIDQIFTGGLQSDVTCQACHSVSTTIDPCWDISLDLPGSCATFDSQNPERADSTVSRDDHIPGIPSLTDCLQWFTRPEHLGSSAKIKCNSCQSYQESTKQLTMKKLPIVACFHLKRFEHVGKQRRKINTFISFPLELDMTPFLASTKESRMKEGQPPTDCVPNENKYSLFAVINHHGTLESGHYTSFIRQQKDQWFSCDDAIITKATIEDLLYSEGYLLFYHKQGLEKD
GAP50: Glideosome-associated protein 50 (GAP50, Plasmodium falciparum, UniProt Q8I2X3)
Sequence of UniProt Q8I2X3 (whole entry, looked up): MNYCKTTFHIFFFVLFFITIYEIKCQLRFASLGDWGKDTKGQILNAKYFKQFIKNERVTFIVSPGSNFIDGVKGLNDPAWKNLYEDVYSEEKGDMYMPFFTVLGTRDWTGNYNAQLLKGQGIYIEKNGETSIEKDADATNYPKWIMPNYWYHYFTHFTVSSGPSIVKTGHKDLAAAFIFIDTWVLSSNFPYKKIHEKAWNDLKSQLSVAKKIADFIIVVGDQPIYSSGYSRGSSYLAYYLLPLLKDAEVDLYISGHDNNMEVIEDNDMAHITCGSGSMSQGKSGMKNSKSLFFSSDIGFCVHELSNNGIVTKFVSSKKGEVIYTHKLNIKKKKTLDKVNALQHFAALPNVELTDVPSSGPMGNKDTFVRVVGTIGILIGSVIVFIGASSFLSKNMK
Sequence of UniProt P10636 (whole entry, looked up): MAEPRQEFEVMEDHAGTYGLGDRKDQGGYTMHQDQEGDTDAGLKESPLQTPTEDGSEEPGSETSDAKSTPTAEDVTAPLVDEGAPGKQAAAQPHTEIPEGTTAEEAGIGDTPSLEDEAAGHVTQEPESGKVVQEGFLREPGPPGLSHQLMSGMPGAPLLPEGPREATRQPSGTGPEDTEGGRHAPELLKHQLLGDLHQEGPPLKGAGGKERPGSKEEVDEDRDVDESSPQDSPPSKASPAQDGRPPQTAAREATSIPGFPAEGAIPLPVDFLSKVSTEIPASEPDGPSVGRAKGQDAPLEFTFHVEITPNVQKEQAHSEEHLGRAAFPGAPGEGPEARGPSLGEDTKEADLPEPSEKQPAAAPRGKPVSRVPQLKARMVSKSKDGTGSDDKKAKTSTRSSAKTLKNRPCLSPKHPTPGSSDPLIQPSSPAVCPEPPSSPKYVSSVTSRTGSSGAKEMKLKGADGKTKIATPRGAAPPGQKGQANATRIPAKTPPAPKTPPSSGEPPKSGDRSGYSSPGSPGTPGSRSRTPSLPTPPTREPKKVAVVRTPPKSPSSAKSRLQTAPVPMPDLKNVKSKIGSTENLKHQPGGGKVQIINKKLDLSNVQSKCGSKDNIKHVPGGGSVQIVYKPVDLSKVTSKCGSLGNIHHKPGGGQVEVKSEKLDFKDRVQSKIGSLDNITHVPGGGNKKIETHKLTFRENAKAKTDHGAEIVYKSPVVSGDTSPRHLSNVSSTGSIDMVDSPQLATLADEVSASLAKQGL

With `CC(=O)N[C@@H]1[C@@H](O)[C@H](O)[C@@H](CO)O[C@H]1O` the Kd was 0.599 ± 0.089 µM (NOD2 S933A LRR domain; surface plasmon resonance; LRR mutant S933A).
The Kd of `O=C(O)CCC(=O)c1cccs1` is reported as greater than 1000 µM (USP51 ZnF-UBD domain).
With `c1coc(CNc2nc(N3CCCCC3)nc3ccccc23)c1` the Kd was 24.5 µM (GAP50; binding, surface plasmon resonance; 1:1 binding model).
`O=C(O)Cc1cc(-c2ccc(C(=O)O)s2)sc1-c1ccc(-c2sc(-c3ccc(C(=O)O)s3)cc2CC(=O)O)s1` has a Kd of 1.28 µM (Microtubule-associated protein tau, 0N4R isoform, aggregated (MAPT, Homo sapiens, UniProt P10636); binding, fluorescence; 40% sucrose tau fraction).
For `Cc1cc2nc3c(=O)[nH]c(=O)nc-3n(C[C@H](O)[C@H](O)[C@H](O)COP(=O)(O)OP(=O)(O)OC[C@H]3O[C@@H](n4cnc5c(N)ncnc54)[C@H](O)[C@@H]3O)c2cc1C`, the Kd was 0.006 µM (human RBM38 and RBM24; binding, competition pulldown mass spectrometry; SW-620 cell lysate).
For `N=c1n(CCN2CCCCC2)c2ccccc2n1CC(O)COc1ccc(Cl)cc1Cl` (stereo not shown), the Kd was 56.3 µM (GAP50; binding, surface plasmon resonance; 1:1 binding model).
`O=C(O)CCN1C(=O)c2ccccc2S1(=O)=O` has a Kd of greater than 1000 µM (USP51 ZnF-UBD domain).
`CC(=O)NC1C(O)OC(CN)C(O)[C@@H]1O[C@H](C)C(=O)N[C@@H](C)C(=O)N[C@H](CCC(=O)O)C(N)=O` (stereo partly shown) gave a Kd of 0.409 ± 0.029 µM (NOD2 S933A LRR domain; surface plasmon resonance; LRR mutant S933A).
The Kd of `Cc1cc(NCCc2ccccc2)nc(NC(=N)Nc2ccc(Cl)cc2)n1` is reported as 15.8 µM (GAP50; binding, surface plasmon resonance; 1:1 binding model).
`Cc1sc2ncn(CC(=O)O)c(=O)c2c1C` gave a Kd of greater than 1000 µM (USP51 ZnF-UBD domain).

For quick reference, copied from above:
`O=C(O)Cc1cc(-c2ccc(C(=O)O)s2)sc1-c1ccc(-c2sc(-c3ccc(C(=O)O)s3)cc2CC(=O)O)s1` has a Kd of 1.28 µM (Microtubule-associated protein tau, 0N4R isoform, aggregated (MAPT, Homo sapiens, UniProt P10636); binding, fluorescence; 40% sucrose tau fraction).
